Literature values as cited in several papers.
± gives the spread as reported. Converted amounts (≈) assume the structure as drawn.

For `CN(C)Cc1cn(Cc2ccc(C(=O)NO)cc2)c2ccccc12`, “potency fold change” read 2.4 fold (HDAC10 (human); enzyme activity, inhibitor; concentration not given; baseline: over Tubastatin A, higher = more potent).
The kinetic solubility of `CCC(C)NC(=O)CSc1nnc(Nc2ccc(C(C)C)cc2)s1` (centres unmarked) is reported as 93 µM (≈ 33.9 µg/mL) (UV-vis; PBS with 1% DMSO; pH 7.4).
The Ki of `c1ccc(CCN2CCN(c3cc(N4CCCC4)nc(N4CCCC4)n3)CC2)cc1` is reported as 8 to 16 nM (caspase-5; inhibitor; range shared with caspase-1).
`Cc1ccc(Cn2cnc3ccccc32)cc1C` gave a Kd of 1300 ± 700 nM (CYP125 Mycobacterium tuberculosis).
`CC(=O)NCCCC[C@H](NC(=O)CNC(=O)[C@H](CC(C)C)NC(C)=O)C(=O)Nc1ccc2c(C)cc(=O)oc2c1` has a Km of 3 µM (human HDAC2; substrate).
`CCN1CCN(Cc2ccc(Nc3cc(-c4cc(F)c5nc(C)n(C(C)C)c5c4)ccn3)nn2)CC1` has an IC50 of 26 nM (CDK4/6; kinase activity, inhibitor).
`C/C=C/Cn1c(Cc2cc(OC)c(OC)c(OC)c2)nc2c(N)ncnc21` gave an IC50 of 89800 ± 12600 nM (Hsp90β; binding, fluorescence polarization competition).
With `CCn1cnc2ccc3nc(C(=N)OCc4ccccc4)sc3c2c1=O` the IC50 was 38000 nM (CDK4/6; kinase activity, inhibitor).
The dissociation half-life of `CC(C)(C)OC(=O)C1=CC(C)(C(=O)c2ccccc2)CCC1=O` (centres unmarked) is reported as 4 h (RSK2 C-terminal kinase domain; binding).
The IC50 of `Cc1ccsc1C(=O)n1nc(Nc2ccc(S(N)(=O)=O)cc2)nc1N` is reported as 1.34 nM (CDK4/6; kinase activity, inhibitor).
`Cc1cccc(C2NC(=O)c3c(Cl)cccc3N2)c1` (racemic) — result for binding: “no binding” (SMARCA4 bromodomain; DSF and ITC; concentration not given, racemate).

Excerpt of the above:
`CCN1CCN(Cc2ccc(Nc3cc(-c4cc(F)c5nc(C)n(C(C)C)c5c4)ccn3)nn2)CC1` has an IC50 of 26 nM (CDK4/6; kinase activity, inhibitor).
